Experimental data pooled from the literature.
Compare with care: the assays were run in different laboratories. Values joined by “and” are separate records of one study, mostly repeats; a detail may differ. ± gives the spread as reported.
Chain of UniProt Q9Y2K6 (whole entry, looked up): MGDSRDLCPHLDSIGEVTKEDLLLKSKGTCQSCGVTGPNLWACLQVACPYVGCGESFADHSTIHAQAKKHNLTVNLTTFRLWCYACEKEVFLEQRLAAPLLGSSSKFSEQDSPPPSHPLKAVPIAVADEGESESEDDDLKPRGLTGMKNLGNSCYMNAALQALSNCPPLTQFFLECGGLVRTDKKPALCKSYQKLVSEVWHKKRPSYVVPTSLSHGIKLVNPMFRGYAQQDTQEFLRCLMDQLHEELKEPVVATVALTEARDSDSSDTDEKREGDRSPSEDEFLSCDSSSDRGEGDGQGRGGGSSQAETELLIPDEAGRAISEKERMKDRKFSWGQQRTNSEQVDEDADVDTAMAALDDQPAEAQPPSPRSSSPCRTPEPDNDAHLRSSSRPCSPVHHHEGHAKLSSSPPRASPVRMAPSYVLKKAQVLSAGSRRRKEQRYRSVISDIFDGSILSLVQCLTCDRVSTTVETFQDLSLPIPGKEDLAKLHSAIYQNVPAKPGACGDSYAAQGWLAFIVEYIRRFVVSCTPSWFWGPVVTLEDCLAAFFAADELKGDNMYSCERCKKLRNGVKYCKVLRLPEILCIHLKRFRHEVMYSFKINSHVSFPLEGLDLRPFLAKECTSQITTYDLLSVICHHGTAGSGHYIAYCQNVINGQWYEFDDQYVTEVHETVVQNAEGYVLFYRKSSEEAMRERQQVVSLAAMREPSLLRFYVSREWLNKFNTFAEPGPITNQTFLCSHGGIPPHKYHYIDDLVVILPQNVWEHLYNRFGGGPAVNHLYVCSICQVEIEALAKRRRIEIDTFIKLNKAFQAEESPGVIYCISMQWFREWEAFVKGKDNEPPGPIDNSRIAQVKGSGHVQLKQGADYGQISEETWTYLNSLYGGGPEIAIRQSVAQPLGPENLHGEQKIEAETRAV
Chain of UniProt Q70CQ1 (whole entry, looked up): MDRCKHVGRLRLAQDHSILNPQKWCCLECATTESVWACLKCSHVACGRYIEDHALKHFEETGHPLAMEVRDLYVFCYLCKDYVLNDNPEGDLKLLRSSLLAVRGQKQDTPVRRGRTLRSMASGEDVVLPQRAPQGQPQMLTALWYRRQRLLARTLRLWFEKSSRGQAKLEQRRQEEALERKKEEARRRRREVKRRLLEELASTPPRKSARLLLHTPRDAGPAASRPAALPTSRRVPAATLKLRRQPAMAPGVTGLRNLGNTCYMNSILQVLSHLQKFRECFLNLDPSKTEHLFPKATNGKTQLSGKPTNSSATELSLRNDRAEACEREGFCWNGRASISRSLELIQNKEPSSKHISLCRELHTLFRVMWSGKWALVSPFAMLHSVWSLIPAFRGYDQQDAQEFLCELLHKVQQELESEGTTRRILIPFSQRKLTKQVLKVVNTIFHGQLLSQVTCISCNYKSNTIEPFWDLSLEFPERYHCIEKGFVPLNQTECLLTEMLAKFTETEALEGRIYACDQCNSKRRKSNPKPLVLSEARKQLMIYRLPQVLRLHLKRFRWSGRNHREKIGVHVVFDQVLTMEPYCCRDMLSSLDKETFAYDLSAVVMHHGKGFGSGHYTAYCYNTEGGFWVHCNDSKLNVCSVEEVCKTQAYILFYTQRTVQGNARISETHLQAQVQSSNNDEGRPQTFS

For O=c1ccn([C@H]2C[C@H](O)[C@@H](COP(=O)(O)OP(=O)(O)OP(=O)(O)O)O2)c(=O)[nH]1, “z-scored log2 fold change” read -6.64 (binding, equilibrium dialysis LC-MS; 5 µM, thermostabilized A2AR-BRIL construct; relative to: no-protein control, direction not given).
The log2 level of C[C@@H](O)CCOC(=O)C[C@@H](C)O is reported as 4.25 ± 0.84 pmol/L (measured: glucagon; human, plasma; 60 min).
For C[C@H](Oc1ccc(Br)cc1-c1ccon1)C(=O)O, “difference from placebo” read -0.213 kg (maximum voluntary grip contraction, handgrip dynamometry; healthy human; 200 mg, SAD).
Under “change physician global assessment”, Cc1cc(Nc2cc3ncccc3c(N[C@@H]3C[C@H]4CC[C@@H](C3)N4CCC#N)n2)n[nH]1 is recorded as -0.5 (moderate-severe ulcerative colitis patients; 270 mg, day 28, Mayo subscore, unit not given; relative to: baseline).
O=C(O)c1ccc(O)cc1 has a radical scavenging of 29.6 ± 1.28% (ABTS radical; 300 µg/mL).
With O=C(O)CCOc1ccccc1 the Kd was over 1000 µM (Ubiquitin carboxyl-terminal hydrolase 49, ZnF-UBD domain (USP49, Homo sapiens, UniProt Q70CQ1)).
CCO[C@H]1CCN(Cc2c(OC)cc(C)c3[nH]ccc23)[C@H](c2ccc(C(=O)O)cc2)C1 — result for “C3d-positive type III RBCs”: -83% (PNH patients, blood; oral, 50 mg then 200 mg, week 4, mean percent change; relative to: baseline).
For N[C@@H](Cc1ccc(O)c(I)c1)C(=O)O, “z-scored log2 fold change” read 0.495 (binding, equilibrium dialysis LC-MS; 5 µM, thermostabilized A2AR-BRIL construct; relative to: no-protein control, direction not given).
For OC(CCN1CCCCC1)(c1ccccc1)C1CC2C=CC1C2 (centres unmarked), “EEG Alpha1-power Pz-O1” read 5.8 µV² (resting-state EEG; healthy elderly humans; oral, 2 mg, eyes open, LS mean).
CC(C)NCC(O)c1ccc(O)c(O)c1 (centres unmarked) gave a sarcomere length of 1.5 µm (ventricular cardiomyocytes, C57BL/6 mouse; dose not given, 0.54 s).
CO[C@H]1C[C@@H]2CC[C@@H](C)[C@@](O)(O2)C(=O)C(=O)N2CCCC[C@H]2C(=O)O[C@H]([C@H](C)C[C@@H]2CC[C@@H](OC(=O)NCCOCCOCCOCCOCCOCCOCCOCCOCCC(=O)N3CCc4cc(Cn5nc(-c6ccc7oc(N)nc7c6)c6c(N)ncnc65)ccc4C3)[C@H](OC)C2)C[C@@H](O)[C@H](C)/C=C(\C)[C@@H](O)[C@@H](OC)C(=O)[C@H](C)C[C@H](C)/C=C/C=C/C=C/1C — result for phospho-S6RP level: “decreased” (measured: S6RP phospho-Ser240/244; mouse, HCC1954 xenograft, tumour; 1 to 3 mg/kg, weekly, end of dosing interval).
NC1(C(=O)N[C@@H](CCO)c2ccc(Cl)cc2)CCN(c2nc[nH]c3nccc2-3)CC1 has an inhibition of 22.4% (NLRP3 inflammasome (mouse); mouse BMDM; 10 µM).
For C[C@@H]1O[C@@H](Oc2ccc(CC#N)cc2)[C@H](O)[C@H](O)[C@H]1O, the radical scavenging was 19.4 ± 1.94% (ABTS radical; 300 µg/mL).
O=C(O)CCCC(=O)O — result for “z-scored log2 fold change”: -0.286 (binding, equilibrium dialysis LC-MS; 5 µM, thermostabilized A2AR-BRIL construct; relative to: no-protein control, direction not given).
For Cc1c(C)n(Cc2cccc(OC(C)(C)C(=O)O)c2)c2ccc(C(=O)N[C@@H](C)c3ccc(C(C)(C)C)cc3)cc12, the BV/TV was 14.7 ± 1% (C57BL/6 mice, diet-induced obese, proximal tibia; dose not given).
For C[C@H]1C[C@H]2CSC(N)=N[C@@]2(c2nc(NC(=O)c3ccc(OC(F)F)cn3)cs2)CO1, “percent change from baseline” read -27.7% (measured: total Aβ; healthy adults, plasma; 3 mg single dose, 24 h post-dose; relative to: placebo).
Cc1ccc([C@@H]2O[C@H](CO)[C@@H](O)[C@H](O)[C@H]2O)cc1Cc1ccc(-c2ccc(F)cc2)s1: “change in fasting serum insulin” -1 µU/mL (Japanese type 2 diabetes patients; 100 mg, day 2; relative to: day 1).
CO[C@H]1CC[C@H](N2C(=O)CNc3ncc(-c4ccc(C(C)(C)O)nc4)nc32)CC1 — result for “p4EBP1 change from baseline”: -48% (flow cytometry; stimulated T cells, human, blood; 45 mg single dose, 5 h, median; relative to: baseline).
Under “tumour growth rate”, CC(C)[C@H](C(=O)Nc1ccc(C(=O)NO)cc1)c1ccccc1 is recorded as 0 %/year (volumetric MRI; human, right meningioma; dose not given, day 373).
The sarcomere length of O=C(O)CNC(=O)Cc1ccccc1 is reported as 1.72 µm (ventricular cardiomyocytes, C57BL/6 mouse; dose not given, 0.7 s).
For NC(=O)c1cnc2[nH]ccc2c1N[C@@H]1[C@@H]2CC3C[C@H]1C[C@@](O)(C3)C2, “change from baseline” read -3.47% (flow cytometry, measured: CD4+ naive T cells; Japanese healthy subjects, peripheral blood; oral, 10 mg twice daily, day 7).
The Iba1-positive area of O=P(O)(O)C(Cl)(Cl)P(=O)(O)O is reported as 2.11% (immunostaining; mouse, SAH model, hippocampal fissure; dose not given, day 7; relative to: total area).
Under “objective response rate”, CCN1CCN(Cc2ccc(Nc3ncc(F)c(-c4cc(F)c5nc6n(c5c4)[C@H](C)CCC6)n3)nc2)CC1 is recorded as 0% (human advanced solid tumours; 50 mg, phase Ia monotherapy RECIST 1.1).
For C[C@@H]1CCC[C@H](n2cnc(-c3cc(Cl)ccc3-n3cc(Cl)nn3)cc2=O)c2cc(ccn2)-c2c(cnn2C(F)F)NC1=O, “concentration for aPTT prolongation” read 1000 nM (dog plasma; IC2× aPTT, Actin FS reagent).
The radical scavenging of COc1cc(C(=O)CCO)ccc1O is reported as 96.63 ± 0.48% (ABTS radical; 300 µg/mL).
O=C(OC(C(F)(F)F)C(F)(F)F)N1CCN(Cc2cccc(Oc3ccccc3)c2)CC1: “tracer distribution volume” 4.27 mL/cm3 (PET; rhesus monkey, hippocampus; intravenous, 0.1 mg/kg, pretreatment blocking, added: [18F]T-401).
Cc1n[nH]c2ccc(-c3cc(OC[C@@H](N)Cc4ccccc4)cnc3-c3ccoc3)cc12: “log2 fold change” 0.0428 (kinase binding, competitor, MIB/MS competition, measured: NPR1; Candida albicans cell lysate; 100 nM; relative to: DMSO).
C[C@@H](O)[C@H](N)C(=O)O: “z-scored log2 fold change” 0.236 (binding, equilibrium dialysis LC-MS; 5 µM, thermostabilized A2AR-BRIL construct; relative to: no-protein control, direction not given).
O=C1Nc2cc3[nH]nc(-c4ccncc4)c3cc2CN1Cc1ccccc1: “complete response, best response” 0% (RECIST v1.1; human, relapsed or refractory advanced solid tumours; intravenous, 11.3 mg/kg).
COc1ccc(-c2cncc(N[C@@H](C)c3cccc(NC(=O)c4cncc(C)c4)c3)n2)cc1OC: “delta delta Ct” -1.28 (measured: rno-miR-490-3p; rat SU5416/hypoxia model, lung; dose not given, unit not given; relative to: SU5416/hypoxia vehicle).
CC(C)C[C@H](NC(=O)[C@H](CC(C)C)NC(=O)[C@H](Cc1c[nH]c2ccccc12)NC(=O)[C@H](CCC(=O)O)NC(=O)[C@@H](NC(=O)[C@H](Cc1ccccc1)NC(=O)[C@H](CCC(=O)O)NC(=O)[C@H](CCCCNC(=O)COCCOCCNC(=O)COCCOCCNC(=O)CC[C@H](NC(=O)CCCCCCCCCCCCCCCCCCC(=O)O)C(=O)O)NC(=O)[C@H](C)NC(=O)[C@H](CCCCN)NC(=O)[C@H](CCCCN)NC(=O)[C@H](CCC(=O)O)NC(=O)[C@H](CC(=O)O)NC(=O)[C@H](CC(C)C)NC(=O)[C@H](Cc1ccc(O)cc1)NC(=O)[C@H](CCCCN)NC(=O)[C@H](CO)NC(=O)[C@H](Cc1ccc(O)cc1)NC(=O)[C@H](CC(=O)O)NC(=O)[C@H](CO)NC(=O)[C@@H](NC(=O)[C@H](Cc1ccccc1)NC(=O)[C@@H](NC(=O)CNC(=O)[C@H](CCC(N)=O)NC(=O)C(C)(C)NC(=O)[C@@H](N)Cc1c[nH]cn1)[C@@H](C)O)[C@@H](C)O)C(C)C)C(=O)N[C@@H](CCC(=O)O)C(=O)NCC(=O)NCC(=O)N1CCC[C@H]1C(=O)N[C@@H](CO)C(=O)N[C@@H](CO)C(=O)NCC(N)=O: “change from baseline” -14.1 pmol/L (measured: glucagon; human, fasting plasma; day 134, LS mean; relative to: baseline).
O=C(CO)[C@@H](O)[C@H](O)CO: “z-scored log2 fold change” -0.0354 (binding, equilibrium dialysis LC-MS; 5 µM, thermostabilized A2AR-BRIL construct; relative to: no-protein control, direction not given).
CCCCC(=O)OCC(=O)[C@]1(O)Cc2c(O)c3c(c(O)c2[C@@H](O[C@H]2C[C@H](NC(=O)C(F)(F)F)[C@H](O)[C@H](C)O2)C1)C(=O)c1c(OC)cccc1C3=O has an inhibition of 22.1% (NLRP3 inflammasome (mouse); mouse BMDM; 10 µM).
O=P(O)(O)O[C@H]1O[C@H](CO)[C@H](O)[C@H](O)[C@H]1O — result for “z-scored log2 fold change”: 0.126 (binding, equilibrium dialysis LC-MS; 5 µM, thermostabilized A2AR-BRIL construct; relative to: no-protein control, direction not given).
Under “best overall response PR”, Cc1cc(C)c(CNC(=O)c2cc(Cl)c3c(c2C)O[C@@](C)([C@H]2CC[C@H](N(C)C)CC2)O3)c(=O)[nH]1 is recorded as 37% (IWG 2007 criteria; human, relapsed/refractory B-cell NHL; dose not given).
The Km of Cc1ccc(Nc2c(F)cccc2Cl)c(CC(=O)O)c1 is reported as 94 µM (bioactivation, measured: dansyl glutathione adduct M6a; human; pathway 3).
C[C@H](CS)C(=O)N1CCC[C@H]1C(=O)O gave a writhing count of 48 and 45 and 41 and 53 and 68 and 33 (acetic acid writhing test; male ICR-CD1 mice; intracerebroventricular, 100 µg/mouse, 30 min, added: 1% acetic acid i.p.).
O=C(COc1ccc(Cl)cc1)NC12CC(c3nnc([C@H]4C[C@@H](OC(F)(F)F)C4)o3)(C1)C2 — result for “ATF4 protein change”: -50.2% (healthy human, PBMC; 200 mg once daily, day 14, 4 h post-dose, median, added: sodium arsenite ex vivo; relative to: baseline).
N#Cc1ccc2c(c1)[C@H]1CCCN(C(=O)c3ccc4[nH]cnc4c3)[C@H]1C2: “diastolic blood pressure change” 0.8 mmHg (human, Phase II trial; 240 mg once daily, day 28, adjusted mean; relative to: baseline).
Under “log2 fold change”, c1ccc(-c2n[nH]cc2-c2ccnc3ccccc23)nc1 is recorded as 1.6 (kinase binding, competitor, MIB/MS competition, measured: MKK2; Candida albicans cell lysate; 1 µM; relative to: DMSO).
Under “plasma EPC level”, O=C(COc1ccc(N2C(=O)[C@@H]3[C@@H]4C=C[C@@H]([C@H]5C[C@@H]45)[C@@H]3C2=O)cc1)c1cc(Cl)cc(Cl)c1 is recorded as “increased” (mice, plasma; 20 mg/kg, single dose).
O=C1[C@H](CC[C@H](O)c2ccc(F)cc2)[C@@H](c2ccc(O)cc2)N1c1ccc(F)cc1 — result for “plasma total cholesterol”: “decreased” (male LDLr-/- mice, Western diet; dose not given, 2 weeks; relative to: vehicle).
For O=C(O)Cn1ccc2ccccc2c1=O, the Kd was 224 µM (Ubiquitin carboxyl-terminal hydrolase 20, ZnF-UBD domain (USP20, Homo sapiens, UniProt Q9Y2K6)).
O=C(O)[C@@H](O)[C@@H](O)[C@H](O)[C@@H](O)C(=O)O: “z-scored log2 fold change” 0.172 (binding, equilibrium dialysis LC-MS; 5 µM, thermostabilized A2AR-BRIL construct; relative to: no-protein control, direction not given).

For quick reference, copied from above:
Under “plasma EPC level”, O=C(COc1ccc(N2C(=O)[C@@H]3[C@@H]4C=C[C@@H]([C@H]5C[C@@H]45)[C@@H]3C2=O)cc1)c1cc(Cl)cc(Cl)c1 is recorded as “increased” (mice, plasma; 20 mg/kg, single dose).
Under “tumour growth rate”, CC(C)[C@H](C(=O)Nc1ccc(C(=O)NO)cc1)c1ccccc1 is recorded as 0 %/year (volumetric MRI; human, right meningioma; dose not given, day 373).
Under “change physician global assessment”, Cc1cc(Nc2cc3ncccc3c(N[C@@H]3C[C@H]4CC[C@@H](C3)N4CCC#N)n2)n[nH]1 is recorded as -0.5 (moderate-severe ulcerative colitis patients; 270 mg, day 28, Mayo subscore, unit not given; relative to: baseline).
For O=c1ccn([C@H]2C[C@H](O)[C@@H](COP(=O)(O)OP(=O)(O)OP(=O)(O)O)O2)c(=O)[nH]1, “z-scored log2 fold change” read -6.64 (binding, equilibrium dialysis LC-MS; 5 µM, thermostabilized A2AR-BRIL construct; relative to: no-protein control, direction not given).
